Assay results pooled from the literature.
Compare with care: the assays were run in different laboratories. ± marks the error that the study gave. Square brackets hold non-standard residues; d marks the D form. Ends that are not written are not given here.
B1: CYBA (Homo sapiens, UniProt P13498); chain MGQIEWAMWANEQALASGLILITGGIVATAGRFTQWYFGAYSIVAGVFVCLLEYPRGKRKKGSTMERWGQKYMTAVVKLFGPFTRNYYVRAVLHLLLSVPAGFLLATILGTACLAIASGIYLLAAVRGEQWTPIEPKPRERPQIGGTIKQPPSNPPPRPPAEARKKPSEEEAAVAAGGPPGGPQVNPIPVTDEVV
B2: sodA Q21C (Escherichia coli, UniProt P00448); Alexa Fluor 647 label; sequence looked up; chain MSYTLPSLPYAYDALEPHFDKCTMEIHHTKHHQTYVNNANAALESLPEFANLPVEELITKLDQLPADKKTVLRNNAGGHANHSLFWKGLKKGTTLQGDLKAAIERDFGSVDNFKAEFEKAAASRFGSGWAWLVLKGDKLAVVSTANQDSPLMGEAISGASGFPIMGLDVWEHAYYLKFQNRRPDYIKEFWNVVNWDEAAARFAAKK
B3: BAK1 26-225 Y100A/Y124A (Arabidopsis thaliana, UniProt Q94F62); sequence looked up; chain NAEGDALSALKNSLADPNKVLQSWDATLVTPCTWFHVTCNSDNSVTRVDLGNANLSGQLVMQLGQLPNLQYLELASNNITGTIPEQLGNLTELVSLDLALNNLSGPIPSTLGRLKKLRFLRLNNNSLSGEIPRSLTAVLTLQVLDLSNNPLTGDIPVNGSFSLFTPISFANTKLTPLPASPPPPISPTPPSPAGSNRITG
B4: UGT1A9 (Homo sapiens, UniProt O60656); chain GKLLVVPMDGSHWFTMRSVVEKLILRGHEVVVVMPEVSWQLGRSLNCTVKTYSTSYTLEDLDREFKAFAHAQWKAQVRSIYSLLMGSYNDIFDLFFSNCRSLFKDKKLVEYLKESSFDAVFLDPFDNCGLIVAKYFSLPSVVFARGILCHYLEEGAQCPAPLSYVPRILLGFSDAMTFKERVRNHIMHLEEHLLCHRFFKNALEIASEILQTPVTEYDLYSHTSIWLLRTDFVLDYPKPVMPNMIFIGGINCHQGKPLPMEFEAYINASGEHGIVVFSLGSMVSEIPEKKAMAIADALGKIPQTVLWRYTGTRPSNLANNTILVKWLPQNDLLGHPMTRAFITHAGSHGVYESICNGVPMVMMPLFGDQMDNAKRMETKGAGVTLNVLEMTSEDLENALKAVINDKSYKENIMRLSSLHKDRPVEPLDLAVFWVEFVMRHKGAPHLRPAAHDLTWYQYHSLDVIGFLLAVVLTVAFITFKCCAYGYRKCLGKKGRVKKAHKSKTH
Sequence of UniProt P26992 (whole entry, unmodified, looked up): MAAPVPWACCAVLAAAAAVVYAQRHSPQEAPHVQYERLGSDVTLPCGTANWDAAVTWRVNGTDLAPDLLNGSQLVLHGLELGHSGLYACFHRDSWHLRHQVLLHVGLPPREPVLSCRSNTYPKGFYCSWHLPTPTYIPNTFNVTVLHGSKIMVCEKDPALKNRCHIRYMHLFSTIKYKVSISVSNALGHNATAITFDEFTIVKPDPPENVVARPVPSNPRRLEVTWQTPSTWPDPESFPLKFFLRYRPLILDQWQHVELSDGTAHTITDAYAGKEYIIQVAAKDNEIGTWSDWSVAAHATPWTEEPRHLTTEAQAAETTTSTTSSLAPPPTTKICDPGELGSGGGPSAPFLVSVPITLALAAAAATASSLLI
Sequence of UniProt Q9QZM3 (whole entry, looked up): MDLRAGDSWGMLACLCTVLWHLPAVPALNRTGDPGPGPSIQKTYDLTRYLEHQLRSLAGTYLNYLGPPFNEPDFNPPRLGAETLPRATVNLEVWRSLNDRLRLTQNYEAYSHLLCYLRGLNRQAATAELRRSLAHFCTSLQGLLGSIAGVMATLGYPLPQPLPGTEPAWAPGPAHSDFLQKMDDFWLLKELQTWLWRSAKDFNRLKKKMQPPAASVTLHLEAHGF
Sequence of UniProt P04839 (whole entry, looked up): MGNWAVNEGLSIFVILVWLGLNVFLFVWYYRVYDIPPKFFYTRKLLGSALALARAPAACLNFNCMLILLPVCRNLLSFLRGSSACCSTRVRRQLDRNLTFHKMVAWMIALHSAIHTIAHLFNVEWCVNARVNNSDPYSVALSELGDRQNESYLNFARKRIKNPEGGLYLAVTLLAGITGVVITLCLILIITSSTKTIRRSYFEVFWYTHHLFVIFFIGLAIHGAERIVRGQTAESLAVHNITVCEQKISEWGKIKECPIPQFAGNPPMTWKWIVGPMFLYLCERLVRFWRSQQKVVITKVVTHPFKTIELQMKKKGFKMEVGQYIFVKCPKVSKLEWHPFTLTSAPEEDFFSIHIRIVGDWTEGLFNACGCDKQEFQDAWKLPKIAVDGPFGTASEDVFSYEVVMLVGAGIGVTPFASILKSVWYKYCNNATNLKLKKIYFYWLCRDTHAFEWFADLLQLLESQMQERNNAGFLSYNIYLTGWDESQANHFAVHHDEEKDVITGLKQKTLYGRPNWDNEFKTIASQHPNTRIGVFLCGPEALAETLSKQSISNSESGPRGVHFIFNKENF
Sequence of UniProt P02680 (whole entry, looked up): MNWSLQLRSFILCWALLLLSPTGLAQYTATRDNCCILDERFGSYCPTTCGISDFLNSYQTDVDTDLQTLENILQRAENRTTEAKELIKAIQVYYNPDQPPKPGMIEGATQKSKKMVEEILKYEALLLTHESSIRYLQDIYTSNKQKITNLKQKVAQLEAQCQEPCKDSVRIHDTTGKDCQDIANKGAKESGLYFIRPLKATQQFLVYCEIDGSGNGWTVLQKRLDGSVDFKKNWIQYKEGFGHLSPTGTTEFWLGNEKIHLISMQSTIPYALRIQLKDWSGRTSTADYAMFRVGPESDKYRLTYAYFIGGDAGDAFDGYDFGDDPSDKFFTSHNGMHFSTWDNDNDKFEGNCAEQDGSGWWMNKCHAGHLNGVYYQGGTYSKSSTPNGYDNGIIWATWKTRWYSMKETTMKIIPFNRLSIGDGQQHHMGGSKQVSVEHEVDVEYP
Sequence of UniProt O55236 (whole entry, unmodified, looked up): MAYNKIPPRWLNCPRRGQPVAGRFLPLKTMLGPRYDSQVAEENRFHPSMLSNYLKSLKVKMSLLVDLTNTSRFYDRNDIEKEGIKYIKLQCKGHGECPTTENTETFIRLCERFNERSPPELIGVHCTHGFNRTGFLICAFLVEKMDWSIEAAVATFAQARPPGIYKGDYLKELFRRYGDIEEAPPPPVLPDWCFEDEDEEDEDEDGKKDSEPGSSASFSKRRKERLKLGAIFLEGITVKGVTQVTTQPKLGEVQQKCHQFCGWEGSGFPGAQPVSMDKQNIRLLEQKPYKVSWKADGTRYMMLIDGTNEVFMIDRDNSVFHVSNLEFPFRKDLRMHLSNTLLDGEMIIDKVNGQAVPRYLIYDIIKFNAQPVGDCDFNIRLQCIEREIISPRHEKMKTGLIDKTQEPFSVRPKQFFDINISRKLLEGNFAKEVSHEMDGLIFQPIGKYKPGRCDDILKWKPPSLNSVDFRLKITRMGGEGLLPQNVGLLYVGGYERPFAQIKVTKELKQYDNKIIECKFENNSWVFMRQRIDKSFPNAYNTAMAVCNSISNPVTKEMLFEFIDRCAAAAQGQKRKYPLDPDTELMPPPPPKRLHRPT
Sequence of UniProt P06399 (whole entry, looked up): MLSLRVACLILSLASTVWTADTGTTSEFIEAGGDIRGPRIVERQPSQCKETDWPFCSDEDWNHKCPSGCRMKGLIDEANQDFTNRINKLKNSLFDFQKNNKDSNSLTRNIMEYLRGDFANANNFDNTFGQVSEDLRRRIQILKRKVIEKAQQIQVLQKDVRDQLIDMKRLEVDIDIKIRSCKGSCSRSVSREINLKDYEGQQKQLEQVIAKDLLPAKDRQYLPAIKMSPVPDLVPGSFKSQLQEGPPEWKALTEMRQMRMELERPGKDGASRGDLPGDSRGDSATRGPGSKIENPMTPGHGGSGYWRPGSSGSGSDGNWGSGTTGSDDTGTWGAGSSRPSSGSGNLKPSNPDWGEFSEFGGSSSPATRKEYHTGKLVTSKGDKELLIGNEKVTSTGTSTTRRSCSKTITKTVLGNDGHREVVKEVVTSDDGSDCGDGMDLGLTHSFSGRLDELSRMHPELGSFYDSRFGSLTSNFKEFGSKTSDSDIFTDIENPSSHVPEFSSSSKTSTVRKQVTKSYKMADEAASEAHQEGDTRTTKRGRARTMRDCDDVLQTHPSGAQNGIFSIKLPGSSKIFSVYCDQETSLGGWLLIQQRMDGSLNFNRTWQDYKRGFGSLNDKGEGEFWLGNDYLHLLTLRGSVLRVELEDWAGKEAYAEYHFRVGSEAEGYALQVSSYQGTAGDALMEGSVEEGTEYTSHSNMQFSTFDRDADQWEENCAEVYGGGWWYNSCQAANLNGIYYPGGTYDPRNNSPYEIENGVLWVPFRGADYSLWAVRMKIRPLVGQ
Sequence of UniProt Q12888 (whole entry, looked up): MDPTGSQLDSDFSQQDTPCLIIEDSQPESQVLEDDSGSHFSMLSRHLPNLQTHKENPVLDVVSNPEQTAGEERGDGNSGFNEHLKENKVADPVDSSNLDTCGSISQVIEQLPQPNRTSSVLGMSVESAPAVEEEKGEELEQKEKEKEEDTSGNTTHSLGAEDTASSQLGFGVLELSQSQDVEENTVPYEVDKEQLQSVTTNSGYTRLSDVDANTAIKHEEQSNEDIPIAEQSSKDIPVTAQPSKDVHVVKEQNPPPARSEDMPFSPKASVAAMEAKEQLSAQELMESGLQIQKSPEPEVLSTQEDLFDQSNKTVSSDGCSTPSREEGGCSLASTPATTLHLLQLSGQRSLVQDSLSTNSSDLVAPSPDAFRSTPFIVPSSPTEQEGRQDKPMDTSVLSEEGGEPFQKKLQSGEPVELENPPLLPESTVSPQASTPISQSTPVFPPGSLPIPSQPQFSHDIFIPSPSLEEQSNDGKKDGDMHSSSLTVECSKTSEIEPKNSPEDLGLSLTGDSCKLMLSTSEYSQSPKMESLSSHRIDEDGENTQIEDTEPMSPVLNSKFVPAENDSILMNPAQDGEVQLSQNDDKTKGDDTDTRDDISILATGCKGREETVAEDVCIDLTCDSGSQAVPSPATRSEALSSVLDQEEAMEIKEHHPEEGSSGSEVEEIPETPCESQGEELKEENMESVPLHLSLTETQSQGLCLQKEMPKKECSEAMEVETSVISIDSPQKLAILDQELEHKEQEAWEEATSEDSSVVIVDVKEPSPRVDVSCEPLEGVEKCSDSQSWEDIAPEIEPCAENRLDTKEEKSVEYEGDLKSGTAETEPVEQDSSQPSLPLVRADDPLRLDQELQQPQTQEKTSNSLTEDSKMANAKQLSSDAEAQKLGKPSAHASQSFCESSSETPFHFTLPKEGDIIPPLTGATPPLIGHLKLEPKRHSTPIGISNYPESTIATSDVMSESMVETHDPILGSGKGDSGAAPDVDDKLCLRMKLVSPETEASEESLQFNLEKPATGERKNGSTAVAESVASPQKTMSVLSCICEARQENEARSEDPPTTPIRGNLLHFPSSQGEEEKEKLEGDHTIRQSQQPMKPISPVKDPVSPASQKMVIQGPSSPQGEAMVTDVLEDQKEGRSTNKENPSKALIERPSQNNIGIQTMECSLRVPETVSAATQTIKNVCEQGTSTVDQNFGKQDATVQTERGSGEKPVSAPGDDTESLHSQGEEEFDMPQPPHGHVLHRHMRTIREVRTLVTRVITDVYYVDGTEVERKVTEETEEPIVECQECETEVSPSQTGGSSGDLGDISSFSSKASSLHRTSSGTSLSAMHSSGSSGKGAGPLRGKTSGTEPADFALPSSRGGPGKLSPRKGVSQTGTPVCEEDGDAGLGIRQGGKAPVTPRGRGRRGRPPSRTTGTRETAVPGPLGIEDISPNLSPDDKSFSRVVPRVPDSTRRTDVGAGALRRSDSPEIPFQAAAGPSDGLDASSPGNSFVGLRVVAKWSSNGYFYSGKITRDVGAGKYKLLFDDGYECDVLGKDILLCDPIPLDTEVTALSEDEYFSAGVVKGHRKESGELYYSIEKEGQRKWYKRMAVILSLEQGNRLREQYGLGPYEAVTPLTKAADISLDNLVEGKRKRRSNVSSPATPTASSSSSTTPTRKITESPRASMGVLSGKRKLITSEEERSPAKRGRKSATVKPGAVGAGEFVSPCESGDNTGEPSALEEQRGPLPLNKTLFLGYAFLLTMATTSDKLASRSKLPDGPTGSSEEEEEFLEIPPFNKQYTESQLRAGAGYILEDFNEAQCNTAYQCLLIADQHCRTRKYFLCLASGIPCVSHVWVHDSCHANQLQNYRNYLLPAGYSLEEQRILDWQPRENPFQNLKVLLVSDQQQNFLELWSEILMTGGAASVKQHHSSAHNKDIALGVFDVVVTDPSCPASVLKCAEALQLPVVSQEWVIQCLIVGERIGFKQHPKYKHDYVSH
Sequence of UniProt P19466 (whole entry, unmodified, looked up): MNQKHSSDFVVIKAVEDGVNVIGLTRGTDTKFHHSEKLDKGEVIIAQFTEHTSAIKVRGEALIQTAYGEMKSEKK

Substance = ASYCKQRNIVWL (designed peptide); target or system = APBA1 PDZ-1 648-746 C654S/C742S (UniProt Q02410); assay = ELISA; system = peptide; conditions = 1 hour; measurement = binding; result = binds
Substance = Insulin human; assay = ELISA; system = rat, brainstem; conditions = intranasal, 20 µg per nostril, 120 min; measurement = concentration; result = 110 ± 29.3 pg/mg tissue
Substance = Clcf1 (Mus musculus, UniProt Q9QZM3); target or system = CNTFR-Fc Fc fusion 23-342 R110Q/T174P/S237F/I287F/Y177H/K178N/T268A/D269A (Homo sapiens, UniProt P26992); assay = ELISA; measurement = binding; result = binds
Substance = B1 (CYBA); target or system = CYBB mature, N-glycans, two hemes (Homo sapiens, UniProt P04839); assay = cryo-EM; measurement = binding; result = binds
Substance = PAC1, dye-labeled SNAP tag (Saccharomyces cerevisiae, UniProt P39946); target or system = DYN1/DYN2/DYN3/PAC11 D2868K (Saccharomyces cerevisiae); assay = pull-down; measurement = binding; result = binds
Substance = ATGGVKKPHR (dimethyl-Lys36); target or system = TP53-binding protein 1, tandem tudor domain (Homo sapiens, UniProt Q12888); assay = tryptophan fluorescence; conditions = tandem Tudor domain; measurement = Kd; result = 1500 nM
Substance = B2 (sodA Q21C); target or system = sodA Q21C, Alexa Fluor 594 at C21 (Escherichia coli, UniProt P00448); assay = native PAGE; conditions = 37 °C; measurement = binding; result = binds
Substance = GRRYVDATSIFDFMLN (POL1 1453-1468 M1459A (Saccharomyces cerevisiae, UniProt P13382); sequence looked up); target or system = PRI1/PRI2 PRI1 1-409, PRI2 49-513 del382-384 (Saccharomyces cerevisiae); assay = pull-down; system = peptide; conditions = 2 h, pH 7.0, 4 °C; measurement = binding; result = binds
Substance = EXO1 (Homo sapiens, UniProt Q9UQ84); target or system = CTC1/STN1/TEN1 2-1217 K240E/Q241E/K242E; assay = pull-down; measurement = binding; result = binds
Substance = alteplase; target or system = Fgg/Fga/Fgb, fibrin form (Rattus norvegicus, UniProt P02680+P06399+P14480); assay = PET-CT; system = rat embolic stroke thrombosis model, ICA-MCA; conditions = intravenous, 10 mg/kg, added: tracer FBP7; measurement = ipsilateral to contralateral activity ratio; result = 1.08 ± 0.11
Substance = GAGUUGAGUUGAGUUGAGUUGAGUUGAGUUGAGUUGAGUUGAGUUGAGUUGAGUU (ssRNA; single strand); target or system = mtrB full length assumed T30V/D39A (Bacillus subtilis, UniProt P19466); assay = filter binding; conditions = added: L-tryptophan 1 mM; measurement = Kd; result = 6 ± 1 nM
Substance = fluorescein-SPT[pS]PSY[pS]PTS (POLR2A CTD peptide consensus heptads, 11-aa; N-fluorescein, pS4, pS8; fluorescein = fluorescein label (fluorescent) on the peptide N-terminus; pS = N[C@@H](COP(=O)(O)O)C(=O)O); target or system = Rngtt 227-567 R330A/K331A/R386A (Mus musculus, UniProt O55236); assay = fluorescence polarisation; system = peptide; conditions = pH 7.0, 23 °C; measurement = binding; result = binds
Substance = B3 (BAK1 26-225 Y100A/Y124A); target or system = HAESA/IDA HAESA ectodomain; IDA 15-621, hydroxyproline in IDA (Arabidopsis thaliana); assay = ITC; conditions = pH 5.0, 25 °C; measurement = binding; result = binds
Substance = RVENRRAFLKLRRQQQIERELNGYMEWISKAEEVILAEDETDVEQ (CACNA1A 369-413 (Oryctolagus cuniculus, UniProt P27884); sequence looked up); target or system = Cacnb2 17-416 M245A/L249A (Rattus norvegicus, UniProt Q8VGC3-2); assay = pull-down; measurement = binding; result = binds
Substance = B4 (UGT1A9); target or system = Cc1ccc2oc(-c3ccccc3)c(O)c(=O)c2c1; assay = steady-state kinetics; conditions = pH 7.4, 37 °C; measurement = Vmax/Km; result = 110000 µL/min/mg

Excerpt of the above:
Substance = ATGGVKKPHR (dimethyl-Lys36); target or system = TP53-binding protein 1, tandem tudor domain (Homo sapiens, UniProt Q12888); assay = tryptophan fluorescence; conditions = tandem Tudor domain; measurement = Kd; result = 1500 nM
